{"data": "Experimental data gathered from unrelated publications", "FLT3": "Receptor-type tyrosine-protein kinase FLT3 (FLT3, Homo sapiens, UniProt P36888)", "TRPM8": "Transient receptor potential cation channel subfamily M member 8 (TRPM8, Homo sapiens, UniProt Q7Z2W7)", "spsB": "Signal peptidase IB (spsB, Staphylococcus aureus, UniProt Q5HHB9)", "ROCK1": "Rho-associated protein kinase 1 (ROCK1, Homo sapiens, UniProt Q13464)", "note": "Protocols differ between the studies behind these lines. Values joined by “and” are separate records of one study, mostly repeats; a detail may differ. ± gives the spread as reported."}
{"SMILES": "CC(C)C(=O)Nc1n[nH]c2cc(-c3cccc(NS(=O)(=O)C4CC4)c3)ccc12", "target": "PIP5K1C (Homo sapiens, UniProt O60331)", "test": "ADP-Glo", "conditions": "1.52 nM", "scale": "baseline: DMSO", "remaining activity": "103%"}
{"SMILES": "C=CC(=O)N1CCC([C@@H]2CCNc3c(C(N)=O)c(-c4ccc(Oc5ccccc5)cc4)nn32)CC1", "target": "FLT3", "test": "kinase activity, inhibitor, HotSpot radiometric", "conditions": "100 nM, added: ATP 10 µM", "remaining activity": "84.9 ± 3.4%"}
{"SMILES": "C=CC(=O)N1CCC[C@@H](n2nc(-c3ccc(Oc4ccccc4)cc3)c3c(N)ncnc32)C1", "target": "Insulin-like growth factor-binding protein 5 (Homo sapiens, UniProt P24593)", "conditions": "0.1 µM", "remaining activity": "134%"}
{"SMILES": "Nc1nc(Nc2ccc(S(N)(=O)=O)cc2)nn1C(=O)c1c(F)cccc1F", "target": "TRPM8", "test": "antagonist", "test system": "HEK293", "conditions": "5 µM", "scale": "baseline: control", "remaining activity": "107 ± 5.82%"}
{"SMILES": "O=C1NC(=O)/C(=C/c2ccc(-c3ccc(F)cc3O)o2)S1", "target": "MAP4K2 (Homo sapiens, UniProt Q12851)", "test": "enzyme activity", "conditions": "10 µM", "remaining activity": "53%"}
{"SMILES": "c1ccc(-c2n[nH]c3c2oc2ccccc23)cc1", "target": "TRPM8", "test": "antagonist", "test system": "HEK293", "conditions": "5 µM", "scale": "baseline: control", "remaining activity": "113 ± 6.08%"}
{"SMILES": "O=C(Nc1ccc(Cl)c(C(F)(F)F)c1)Nc1ccc2ccccc2c1", "target": "spsB", "test": "peptidase activity, activator, FRET peptide cleavage", "test system": "Staphylococcus aureus, membranes", "conditions": "100 µM", "scale": "baseline: DMSO", "remaining activity": "147%"}
{"SMILES": "O=c1cc(N2CCNCC2)oc2c(-c3ccccc3)cccc12", "target": "TRPM8", "test": "antagonist", "test system": "HEK293", "conditions": "5 µM", "scale": "baseline: control", "remaining activity": "96.5 ± 4.09%"}
{"SMILES": "COc1cc(N2CCN(C)CC2)ccc1Nc1nc(N)n(C(=O)NCc2c(Cl)cccc2Cl)n1", "target": "ROCK1", "test": "enzyme activity", "conditions": "10 µM", "scale": "baseline: control", "remaining activity": "1.2%"}
{"SMILES": "COc1cc(O)c(CC=C(C)C)c(O)c1C(=O)/C=C/c1ccc(O)cc1", "target": "Thyroxine 5-deiodinase (DIO3, Homo sapiens, UniProt P55073, A240R)", "test": "enzyme activity, inhibitor", "conditions": "200 µM, screening", "scale": "baseline: DMSO control", "remaining activity": "-3.87%"}
{"SMILES": "Cc1cccc(C)c1NC(=O)Nc1ccc(Cl)c(C(F)(F)F)c1", "target": "spsB", "test": "peptidase activity, activator, FRET peptide cleavage", "test system": "Staphylococcus aureus, membranes", "conditions": "10 µM", "scale": "baseline: DMSO", "remaining activity": "117%"}
{"SMILES": "COc1cccc(-c2cc(=O)c3ccccc3o2)c1N", "target": "TRPM8", "test": "antagonist", "test system": "HEK293", "conditions": "5 µM", "scale": "baseline: control", "remaining activity": "95.1 ± 2.53%"}
{"SMILES": "CCCCNC(=O)c1ccc(NC(=O)Nc2ccc(Cl)c(C(F)(F)F)c2)cc1", "target": "spsB", "test": "peptidase activity, activator, FRET peptide cleavage", "test system": "Staphylococcus aureus, membranes", "conditions": "50 µM", "scale": "baseline: DMSO", "remaining activity": "128%"}
{"SMILES": "COc1cc(F)ccc1-c1ncnc(Nc2cccc(C[S@](C)(=N)=O)c2)n1", "target": "PKN2 (Homo sapiens, UniProt Q16513)", "test": "kinase activity", "conditions": "10 µM, added: 10 µM ATP", "remaining activity": "100%"}
{"SMILES": "COc1ccc(F)cc1C(=O)NCc1ccc(-c2nn([C@@H](C)C(F)(F)F)c(N)c2C(N)=O)cc1", "target": "TNIK (Homo sapiens, UniProt Q9UKE5)", "test": "kinase activity, inhibitor, HotSpot radiometric", "conditions": "1000 nM, added: ATP at Km", "remaining activity": "64.4 ± 2.8%"}
{"SMILES": "CCOc1cc(N2CCN(C)CC2)ccc1Nc1nc(N)n(C(=O)NCc2ccccc2S(=O)(=O)C(C)C)n1", "target": "ROCK1", "test": "enzyme activity", "conditions": "10 µM", "scale": "baseline: control", "remaining activity": "21%"}
{"SMILES": "Cc1cc(Nc2cc(N3CCN(C)CC3)nc(Sc3ccc(NC(=O)C4CC4)cc3)n2)[nH]n1", "target": "PRKCG (Homo sapiens, UniProt P05129)", "test": "kinase activity, KinaseProfiler", "conditions": "0.03 µM, species human", "scale": "baseline: control", "remaining activity": "87%"}
{"SMILES": "CCCC(=O)Oc1ccc2[nH]c(C(=O)c3cc4ccccc4[nH]3)cc2c1", "target": "TRPM8", "test": "antagonist", "test system": "HEK293", "conditions": "5 µM", "scale": "baseline: control", "remaining activity": "99.7 ± 1.31%"}
{"SMILES": "CC#CC(=O)N1CCC[C@H]1c1nc(-c2ccc(C(=O)Nc3ccccn3)cc2)c2c(N)nccn12", "target": "FLT3", "test": "kinase activity, inhibitor, HotSpot radiometric", "conditions": "100 nM, added: ATP 10 µM", "remaining activity": "100.3 ± 0.4%"}
{"SMILES": "O=C(NC1CCC1)c1ccc2nc(-c3cccc(NS(=O)(=O)NCCN4CCCCC4)c3)cn2c1", "target": "FLT3 (Homo sapiens, UniProt P36888, K663Q)", "test": "enzyme activity", "conditions": "10 µM", "remaining activity": "55%"}
{"SMILES": "O=C(Nc1ccc(Cl)c(C(F)(F)F)c1)N1CCc2ccccc2C1", "target": "spsB", "test": "peptidase activity, activator, FRET peptide cleavage", "test system": "Staphylococcus aureus, membranes", "conditions": "50 µM", "scale": "baseline: DMSO", "remaining activity": "156%"}
{"SMILES": "COc1cc(Nc2ncc3c(n2)-c2ccc(Cl)cc2C(c2c(F)cccc2OC)=NC3)ccc1C(=O)O", "target": "EPHB3", "test": "kinase activity", "conditions": "1 µM", "remaining activity": "92%"}
{"SMILES": "O=C(Nc1ccc(Nc2ccccc2)cc1)Nc1ccc(Cl)c(C(F)(F)F)c1", "target": "spsB", "test": "peptidase activity, activator, FRET peptide cleavage", "test system": "Staphylococcus aureus, membranes", "conditions": "10 µM", "scale": "baseline: DMSO", "remaining activity": "132%"}
{"SMILES": "CNc1cc2c(Nc3cccc(Br)c3)ncnc2cn1", "target": "TRPM8", "test": "antagonist", "test system": "HEK293", "conditions": "5 µM", "scale": "baseline: control", "remaining activity": "91.1 ± 16.8%"}
{"SMILES": "O=C(Cc1ccc(Cl)c(C(F)(F)F)c1)Nc1ccc2c(c1)OC(F)(F)O2", "target": "spsB", "test": "peptidase activity, activator, FRET peptide cleavage", "test system": "Staphylococcus aureus, membranes", "conditions": "50 µM", "scale": "baseline: DMSO", "remaining activity": "143%"}
{"SMILES": "O=C(O)c1ccc(Nc2ncc3c(n2)-c2ccc(Cl)cc2C(c2c(F)cccc2F)=NC3)cc1", "target": "human TBK1(h)", "test": "kinase activity", "conditions": "1 µM", "remaining activity": "100%"}
{"SMILES": "NC/C(=C\\F)COc1cccc(Cn2c(=S)[nH]c(=O)c3[nH]cnc32)c1", "target": "Peroxidasin homolog (PXDN, Homo sapiens, UniProt Q92626)", "test": "enzyme activity, inhibitor, Amplex UltraRed", "conditions": "60 µM", "scale": "baseline: control", "remaining activity": "7.92% and 8.76%"}
{"SMILES": "COc1cc(-c2cncc3c2CN(C)Cc2cc(N4CCNCC4)ccc2-3)cc(OC)c1OC", "target": "ACVR2A (Homo sapiens, UniProt P27037)", "test": "kinase activity", "conditions": "1 µM, human enzyme, added: ATP 10 µM", "scale": "baseline: DMSO control", "remaining activity": "54%"}
{"SMILES": "O=C(Nc1ccc2c(c1)OCCO2)Nc1ccc(Cl)c(C(F)(F)F)c1", "target": "spsB", "test": "peptidase activity, activator, FRET peptide cleavage", "test system": "Staphylococcus aureus, membranes", "conditions": "100 µM", "scale": "baseline: DMSO", "remaining activity": "119%"}
{"SMILES": "CNc1ncc2c(/C=C/C(=O)N3CCC(OC)CC3)nn(Cc3cccc(C(F)(F)F)c3)c2n1", "target": "FLT3", "test": "kinase activity, inhibitor", "conditions": "1 µM", "scale": "baseline: untreated control", "remaining activity": "87%"}
{"SMILES": "Nc1ncnc2c1ncn2C1OC(CSCCNCc2cccc(-c3ccccc3)c2)C(O)C1O (stereo not shown)", "target": "METTL5, with TRMT112 (Homo sapiens, UniProt Q9NRN9)", "conditions": "10 µM", "remaining activity": "62.7%"}
{"SMILES": "O=C1C(Cl)=C(N2C(=O)CCC2=O)C(=O)c2ccccc21", "target": "TRPM8", "test": "antagonist", "test system": "HEK293", "conditions": "5 µM", "scale": "baseline: control", "remaining activity": "103 ± 11.5%"}
{"SMILES": "C=CC(=O)N1CCCN(C(=O)c2cc(Sc3cnc(NC(=O)C4CC4)s3)c(C)cc2OC)C[C@H]1C", "target": "LCK (Homo sapiens, UniProt P06239)", "test": "kinase activity, inhibitor", "conditions": "concentration not given", "scale": "baseline: control", "remaining activity": "89%"}
{"SMILES": "O=C(Nc1ccc(C(=O)Nc2ccccc2)cc1)Nc1ccc(Cl)c(C(F)(F)F)c1", "target": "spsB", "test": "peptidase activity, activator, FRET peptide cleavage", "test system": "Staphylococcus aureus, membranes", "conditions": "10 µM", "scale": "baseline: DMSO", "remaining activity": "110%"}
{"SMILES": "CN(C)c1ccc(C=C2C(=O)Nc3ccccc32)cc1", "target": "TRPM8", "test": "antagonist", "test system": "HEK293", "conditions": "5 µM", "scale": "baseline: control", "remaining activity": "88 ± 7.11%"}
{"SMILES": "COc1cc(N2CCN(C)CC2)ccc1Nc1nc(N)n(C(=S)NCc2c(Cl)cccc2Cl)n1", "target": "ERN1 (Homo sapiens, UniProt O75460)", "test": "enzyme activity", "conditions": "10 µM", "scale": "baseline: control", "remaining activity": "2.4%"}
{"SMILES": "CCN(CC)CCCC(C)Nc1ccnc2cc(Cl)ccc12 (stereo not shown)", "target": "Potassium voltage-gated channel subfamily KQT member 1, with KCNE1 (KCNQ1, Homo sapiens, UniProt P51787)", "test": "IKs current, patch clamp", "test system": "HEK293", "conditions": "30 µM", "scale": "baseline: pre-drug current", "remaining activity": "109%"}
{"note": "Some of these lines once more:"}
{"SMILES": "O=C(Nc1ccc(Nc2ccccc2)cc1)Nc1ccc(Cl)c(C(F)(F)F)c1", "target": "spsB", "test": "peptidase activity, activator, FRET peptide cleavage", "test system": "Staphylococcus aureus, membranes", "conditions": "10 µM", "scale": "baseline: DMSO", "remaining activity": "132%"}
{"SMILES": "CNc1cc2c(Nc3cccc(Br)c3)ncnc2cn1", "target": "TRPM8", "test": "antagonist", "test system": "HEK293", "conditions": "5 µM", "scale": "baseline: control", "remaining activity": "91.1 ± 16.8%"}
